{"data": "Assay results from different studies", "note": "A part holds a random share of what one study measured.", "UniProt O15530, sequence (whole entry, looked up)": "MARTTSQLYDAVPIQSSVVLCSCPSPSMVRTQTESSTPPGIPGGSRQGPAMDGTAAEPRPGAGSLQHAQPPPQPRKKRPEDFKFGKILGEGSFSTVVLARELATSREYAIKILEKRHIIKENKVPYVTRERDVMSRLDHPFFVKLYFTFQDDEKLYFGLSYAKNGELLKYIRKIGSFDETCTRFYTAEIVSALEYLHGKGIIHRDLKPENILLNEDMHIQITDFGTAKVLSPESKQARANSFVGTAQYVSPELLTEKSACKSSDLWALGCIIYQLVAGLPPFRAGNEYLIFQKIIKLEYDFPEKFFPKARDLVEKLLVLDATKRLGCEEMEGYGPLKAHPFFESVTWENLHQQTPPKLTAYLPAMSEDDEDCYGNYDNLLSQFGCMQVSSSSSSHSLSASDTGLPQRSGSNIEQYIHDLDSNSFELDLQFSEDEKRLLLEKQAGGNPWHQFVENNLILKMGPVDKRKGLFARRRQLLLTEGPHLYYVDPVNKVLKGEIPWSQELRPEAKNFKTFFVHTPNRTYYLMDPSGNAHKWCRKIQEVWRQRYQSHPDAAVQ", "UniProt P06213, sequence (whole entry, looked up)": "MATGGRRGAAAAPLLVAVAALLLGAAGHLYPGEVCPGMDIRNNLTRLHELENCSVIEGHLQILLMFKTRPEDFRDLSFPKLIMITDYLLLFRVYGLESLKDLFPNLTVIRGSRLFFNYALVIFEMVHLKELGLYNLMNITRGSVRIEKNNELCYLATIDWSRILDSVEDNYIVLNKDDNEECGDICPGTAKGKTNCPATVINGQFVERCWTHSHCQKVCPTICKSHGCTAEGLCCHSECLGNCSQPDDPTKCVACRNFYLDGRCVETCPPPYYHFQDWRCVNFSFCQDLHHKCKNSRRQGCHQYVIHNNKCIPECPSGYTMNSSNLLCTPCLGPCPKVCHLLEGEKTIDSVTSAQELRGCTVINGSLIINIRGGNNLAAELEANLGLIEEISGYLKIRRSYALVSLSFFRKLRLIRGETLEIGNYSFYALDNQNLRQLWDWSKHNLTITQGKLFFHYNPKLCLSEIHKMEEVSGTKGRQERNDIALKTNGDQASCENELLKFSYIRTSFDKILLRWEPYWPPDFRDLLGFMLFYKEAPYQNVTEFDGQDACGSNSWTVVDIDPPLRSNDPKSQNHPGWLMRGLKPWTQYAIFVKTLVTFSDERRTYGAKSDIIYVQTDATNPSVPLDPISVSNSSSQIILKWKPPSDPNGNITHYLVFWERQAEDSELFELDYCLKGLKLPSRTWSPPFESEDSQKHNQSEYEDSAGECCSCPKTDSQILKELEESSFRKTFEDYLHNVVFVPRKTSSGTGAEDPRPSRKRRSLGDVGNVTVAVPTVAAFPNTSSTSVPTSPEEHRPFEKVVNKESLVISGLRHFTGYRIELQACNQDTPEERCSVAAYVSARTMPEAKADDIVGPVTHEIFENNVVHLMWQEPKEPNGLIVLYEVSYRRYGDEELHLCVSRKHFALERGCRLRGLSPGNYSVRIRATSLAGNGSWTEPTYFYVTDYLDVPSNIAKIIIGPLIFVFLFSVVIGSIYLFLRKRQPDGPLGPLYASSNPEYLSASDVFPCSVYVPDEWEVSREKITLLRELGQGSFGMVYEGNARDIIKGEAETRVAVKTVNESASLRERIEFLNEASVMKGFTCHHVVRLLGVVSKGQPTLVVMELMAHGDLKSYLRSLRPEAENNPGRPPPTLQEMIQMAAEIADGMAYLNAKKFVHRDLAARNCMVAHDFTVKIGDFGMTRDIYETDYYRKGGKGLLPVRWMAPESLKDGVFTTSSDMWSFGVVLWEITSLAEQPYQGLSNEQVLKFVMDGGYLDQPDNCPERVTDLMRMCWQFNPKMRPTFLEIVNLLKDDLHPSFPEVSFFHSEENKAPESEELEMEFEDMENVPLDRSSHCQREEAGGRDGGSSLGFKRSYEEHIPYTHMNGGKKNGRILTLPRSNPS", "UniProt P41279, sequence (whole entry, looked up)": "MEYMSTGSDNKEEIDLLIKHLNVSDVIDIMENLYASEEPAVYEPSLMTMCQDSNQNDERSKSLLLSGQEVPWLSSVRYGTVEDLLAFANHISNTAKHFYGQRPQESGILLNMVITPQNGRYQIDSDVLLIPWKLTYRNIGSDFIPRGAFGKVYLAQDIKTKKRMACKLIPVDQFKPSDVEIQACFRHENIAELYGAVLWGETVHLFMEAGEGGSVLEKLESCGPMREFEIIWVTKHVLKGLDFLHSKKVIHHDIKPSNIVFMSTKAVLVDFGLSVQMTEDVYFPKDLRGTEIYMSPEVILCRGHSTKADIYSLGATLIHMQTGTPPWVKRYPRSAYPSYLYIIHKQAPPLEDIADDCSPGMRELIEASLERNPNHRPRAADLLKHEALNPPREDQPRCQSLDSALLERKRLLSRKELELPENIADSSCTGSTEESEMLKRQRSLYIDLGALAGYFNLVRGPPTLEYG", "UniProt P35590, sequence (whole entry, looked up)": "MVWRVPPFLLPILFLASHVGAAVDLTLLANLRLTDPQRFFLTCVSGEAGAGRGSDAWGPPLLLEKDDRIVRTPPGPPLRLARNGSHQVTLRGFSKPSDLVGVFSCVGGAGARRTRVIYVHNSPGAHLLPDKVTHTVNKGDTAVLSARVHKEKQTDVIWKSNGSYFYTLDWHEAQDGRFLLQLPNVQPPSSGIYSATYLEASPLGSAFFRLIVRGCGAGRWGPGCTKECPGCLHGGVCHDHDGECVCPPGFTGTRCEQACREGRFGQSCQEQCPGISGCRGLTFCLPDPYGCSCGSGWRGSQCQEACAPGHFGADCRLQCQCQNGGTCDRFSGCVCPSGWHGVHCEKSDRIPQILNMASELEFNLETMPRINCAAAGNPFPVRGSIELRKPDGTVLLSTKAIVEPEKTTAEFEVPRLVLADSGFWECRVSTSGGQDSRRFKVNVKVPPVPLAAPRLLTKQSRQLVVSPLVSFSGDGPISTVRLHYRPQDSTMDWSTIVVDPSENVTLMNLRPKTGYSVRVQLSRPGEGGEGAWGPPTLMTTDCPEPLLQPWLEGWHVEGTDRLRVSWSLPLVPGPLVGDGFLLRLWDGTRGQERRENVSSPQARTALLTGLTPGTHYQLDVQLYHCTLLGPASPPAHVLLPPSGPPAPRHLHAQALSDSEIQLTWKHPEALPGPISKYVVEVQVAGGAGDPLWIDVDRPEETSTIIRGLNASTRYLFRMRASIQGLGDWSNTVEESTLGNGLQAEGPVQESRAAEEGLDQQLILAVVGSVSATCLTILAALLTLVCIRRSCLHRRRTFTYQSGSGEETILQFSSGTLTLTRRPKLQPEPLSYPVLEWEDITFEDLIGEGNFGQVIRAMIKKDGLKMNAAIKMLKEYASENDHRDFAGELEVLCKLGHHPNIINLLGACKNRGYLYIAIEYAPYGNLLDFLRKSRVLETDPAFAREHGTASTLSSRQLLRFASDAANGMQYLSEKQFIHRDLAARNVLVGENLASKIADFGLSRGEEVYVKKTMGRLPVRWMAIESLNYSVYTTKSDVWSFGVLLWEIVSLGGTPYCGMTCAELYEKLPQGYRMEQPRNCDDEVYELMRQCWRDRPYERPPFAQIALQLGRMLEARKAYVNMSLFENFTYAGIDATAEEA", "UniProt Q04912, sequence (whole entry, looked up)": "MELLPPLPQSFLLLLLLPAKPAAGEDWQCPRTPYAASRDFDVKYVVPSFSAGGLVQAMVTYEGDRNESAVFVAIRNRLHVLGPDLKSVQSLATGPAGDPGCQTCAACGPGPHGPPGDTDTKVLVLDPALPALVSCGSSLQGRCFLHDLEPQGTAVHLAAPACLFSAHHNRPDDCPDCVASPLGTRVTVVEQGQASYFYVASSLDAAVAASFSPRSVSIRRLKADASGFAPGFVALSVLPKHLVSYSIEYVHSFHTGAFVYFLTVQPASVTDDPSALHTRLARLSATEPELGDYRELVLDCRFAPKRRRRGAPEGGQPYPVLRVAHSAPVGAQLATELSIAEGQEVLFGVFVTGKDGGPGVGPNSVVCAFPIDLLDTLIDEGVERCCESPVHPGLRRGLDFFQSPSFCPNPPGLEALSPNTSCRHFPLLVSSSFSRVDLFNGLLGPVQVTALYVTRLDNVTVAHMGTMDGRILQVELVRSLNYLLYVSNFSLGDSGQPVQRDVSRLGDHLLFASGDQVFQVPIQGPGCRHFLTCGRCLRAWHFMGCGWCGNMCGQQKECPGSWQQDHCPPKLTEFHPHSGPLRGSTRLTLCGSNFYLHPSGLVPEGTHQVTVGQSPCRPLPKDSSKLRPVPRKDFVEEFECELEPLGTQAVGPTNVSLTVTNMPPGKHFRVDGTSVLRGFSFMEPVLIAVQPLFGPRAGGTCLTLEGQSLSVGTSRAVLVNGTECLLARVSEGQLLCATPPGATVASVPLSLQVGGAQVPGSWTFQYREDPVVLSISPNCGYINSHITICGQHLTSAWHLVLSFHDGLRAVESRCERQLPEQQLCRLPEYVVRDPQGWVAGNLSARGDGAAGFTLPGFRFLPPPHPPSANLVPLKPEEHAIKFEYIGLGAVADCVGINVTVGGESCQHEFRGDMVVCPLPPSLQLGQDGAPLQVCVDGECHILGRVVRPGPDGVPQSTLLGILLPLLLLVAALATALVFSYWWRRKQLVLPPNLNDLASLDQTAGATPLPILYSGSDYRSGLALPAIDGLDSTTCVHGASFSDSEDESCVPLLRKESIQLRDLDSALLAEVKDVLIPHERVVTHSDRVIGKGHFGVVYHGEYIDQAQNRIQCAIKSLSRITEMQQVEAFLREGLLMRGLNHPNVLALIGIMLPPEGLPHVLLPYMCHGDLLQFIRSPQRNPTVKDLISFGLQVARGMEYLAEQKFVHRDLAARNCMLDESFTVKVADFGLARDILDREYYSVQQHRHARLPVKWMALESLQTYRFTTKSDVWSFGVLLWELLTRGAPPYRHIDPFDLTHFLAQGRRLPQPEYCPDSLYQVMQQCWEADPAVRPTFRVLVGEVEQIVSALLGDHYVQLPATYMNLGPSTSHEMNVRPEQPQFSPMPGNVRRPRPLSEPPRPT"}
{"data": "Block 1", "Structure (SMILES)": "CC(=O)Nc1c(C(C)=O)c(=O)n(C)c2nc(-c3ccc(Cl)cc3Cl)c(-c3ccc(Cl)cc3)cc12", "effect on": "cell-free assay", "technique": "competition with immobilised ligand", "tested at": "1 µM"}
{"target": "Serine/threonine-protein kinase TBK1 (TBK1, Homo sapiens, UniProt Q9UHD2)", "remaining binding [%]": 81}
{"target": "Ribosomal protein S6 kinase beta-1 (RPS6KB1, Homo sapiens, UniProt P23443)", "remaining binding [%]": 95}
{"target": "Macrophage-stimulating protein receptor (MST1R, Homo sapiens, UniProt Q04912)", "remaining binding [%]": 100}
{"target": "Misshapen-like kinase 1 (MINK1, Homo sapiens, UniProt Q8N4C8)", "remaining binding [%]": 100}
{"target": "Tyrosine-protein kinase receptor Tie-1 (TIE1, Homo sapiens, UniProt P35590)", "remaining binding [%]": 100}
{"data": "Block 2", "Structure (SMILES)": "COc1ccc(-c2c(Nc3ccccn3)[nH]c3c(C4=CCCCC4)c(-c4ccccc4)nn3c2=O)cc1", "medium": "plasma", "route": "oral"}
{"test": "LC-MS/MS", "test system": "human", "conditions": "200 mg twice daily, 4 h, single dose", "plasma concentration, geometric mean [ng/mL]": 1400}
{"test system": "cancer patients", "conditions": "400 mg, 1 h post-dose, single dose", "plasma concentration, geometric mean [ng/mL]": 293}
{"test": "LC-MS/MS", "test system": "human", "conditions": "50 mg once daily, 0 h, cycle 1", "plasma concentration, geometric mean [ng/mL]": 1070}
{"test system": "human patients", "conditions": "150 mg once daily, 0 h, cycle 1", "plasma concentration, geometric mean [ng/mL]": 3030}
{"test system": "cancer patients", "conditions": "100 mg, 1 h post-dose, single dose", "plasma concentration, geometric mean [ng/mL]": 135}
{"data": "Block 3", "Compound": "O=C(Nc1cnn(-c2csc(C(=O)NC3COC3)c2)c1)Nc1ccccc1Cl", "effect on": "enzyme activity", "tested at": "5 µM", "baseline": "untreated control"}
{"target": "Serine/threonine-protein kinase VRK1 (VRK1, Homo sapiens, UniProt Q99986)", "remaining activity": "98.1%"}
{"target": "Cyclin-dependent kinase 4, with cyclin D3 (CDK4, Homo sapiens, UniProt P11802)", "remaining activity": "96.1%"}
{"target": "Insulin receptor (INSR, Homo sapiens, UniProt P06213)", "remaining activity": "95.6%"}
{"target": "Mitogen-activated protein kinase kinase kinase 8 (MAP3K8, Homo sapiens, UniProt P41279)", "remaining activity": "92%"}
{"target": "Leukocyte tyrosine kinase receptor (LTK, Homo sapiens, UniProt P29376)", "remaining activity": "94.5%"}
{"target": "3-phosphoinositide-dependent protein kinase 1 (PDPK1, Homo sapiens, UniProt O15530)", "remaining activity": "94.3%"}
{"target": "Cyclin-dependent kinase 2, with cyclin E (CDK2, Homo sapiens, UniProt P24941)", "remaining activity": "97.7%"}
{"target": "Receptor-interacting serine/threonine-protein kinase 4 (RIPK4, Homo sapiens, UniProt P57078)", "remaining activity": "77%"}
{"data": "Block 4", "target": "Tyrosine-protein kinase JAK3 (JAK3, Homo sapiens, UniProt P52333)", "effect on": "enzyme activity", "mode": "inhibitor", "tested at": "0.5 µM", "baseline": "control", "Target sequence (P52333 1-1124)": "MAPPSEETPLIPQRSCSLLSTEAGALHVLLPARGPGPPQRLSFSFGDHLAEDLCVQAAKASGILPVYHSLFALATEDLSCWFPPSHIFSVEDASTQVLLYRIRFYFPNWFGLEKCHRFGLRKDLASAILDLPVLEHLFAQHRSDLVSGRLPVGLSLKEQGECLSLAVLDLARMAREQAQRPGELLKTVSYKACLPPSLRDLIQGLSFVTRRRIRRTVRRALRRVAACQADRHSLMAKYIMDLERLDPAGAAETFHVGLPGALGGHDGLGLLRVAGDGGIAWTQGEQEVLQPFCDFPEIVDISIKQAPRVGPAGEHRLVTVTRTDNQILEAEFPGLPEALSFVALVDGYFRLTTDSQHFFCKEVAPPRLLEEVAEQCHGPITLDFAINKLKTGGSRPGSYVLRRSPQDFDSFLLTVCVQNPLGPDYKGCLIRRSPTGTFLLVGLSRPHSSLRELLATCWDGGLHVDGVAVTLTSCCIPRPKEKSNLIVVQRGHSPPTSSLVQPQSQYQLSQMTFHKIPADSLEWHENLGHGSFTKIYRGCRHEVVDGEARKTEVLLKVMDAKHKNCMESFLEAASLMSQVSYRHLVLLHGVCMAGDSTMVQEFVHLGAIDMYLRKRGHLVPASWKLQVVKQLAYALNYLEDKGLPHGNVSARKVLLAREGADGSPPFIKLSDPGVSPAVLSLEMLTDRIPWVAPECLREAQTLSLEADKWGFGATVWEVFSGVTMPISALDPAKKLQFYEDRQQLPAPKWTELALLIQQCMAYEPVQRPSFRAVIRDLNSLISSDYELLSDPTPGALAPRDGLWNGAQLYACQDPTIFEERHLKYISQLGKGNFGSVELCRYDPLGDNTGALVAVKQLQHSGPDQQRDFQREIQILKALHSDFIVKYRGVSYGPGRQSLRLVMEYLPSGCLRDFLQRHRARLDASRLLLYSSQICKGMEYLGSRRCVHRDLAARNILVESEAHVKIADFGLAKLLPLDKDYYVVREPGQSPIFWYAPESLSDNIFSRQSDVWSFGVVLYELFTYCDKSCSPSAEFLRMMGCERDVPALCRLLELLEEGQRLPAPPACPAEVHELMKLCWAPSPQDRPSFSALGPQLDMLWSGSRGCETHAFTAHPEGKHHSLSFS"}
{"SMILES": "Cn1sc(=O)n(Cc2ccccc2)c1=O", "remaining activity [%]": 106}
{"SMILES": "O=C1NC(=O)C(c2cn(CCCO)c3ncccc23)=C1c1cnccn1", "remaining activity [%]": 134}
{"SMILES": "O=C(CCCc1ccc(-c2ccccc2F)cc1)Nc1ccc(O)cc1", "remaining activity [%]": 92.1}
{"SMILES": "O=C1NC(=O)C(c2cn(CCCn3ccnc3)c3ccccc23)=C1Nc1ccccc1", "remaining activity [%]": 7.97}
{"SMILES": "Nc1[nH]nc2nc3ccccc3nc12", "remaining activity [%]": 68}
{"SMILES": "CN(C)c1ccc(C=C2C(=O)Nc3ccccc32)cc1", "remaining activity [%]": 113}
{"SMILES": "COc1ccc(C(=O)Nc2sc3c(c2C(N)=O)CCCC3)cc1OC", "remaining activity [%]": 108}
{"SMILES": "Cc1ccc(Nc2nccc(N(C)c3ccc4c(C)n(C)nc4c3)n2)cc1S(N)(=O)=O", "remaining activity [%]": 95.3}
{"SMILES": "O=C(O)c1ccc2c3c1cccc3c(=O)n1c3ccccc3nc21", "remaining activity [%]": 46.9}
{"SMILES": "CC(C)[C@H](CO)Nc1nc(Nc2cc(N)cc(Cl)c2)c2ncn(C(C)C)c2n1", "remaining activity [%]": 108}
{"SMILES": "Cc1ccc(NC(=O)c2ccc(CN3CCN(C)CC3)cc2)cc1Nc1nc(-c2cccnc2)cs1", "remaining activity [%]": 93.7}
{"SMILES": "C#Cc1cccc(Nc2ncnc3cc(OCCOC)c(OCCOC)cc23)c1", "remaining activity [%]": 91.3}
{"SMILES": "Cc1nc(-c2ccccc2)c(-c2ccncc2)o1", "remaining activity [%]": 90.7}
{"SMILES": "NCCNc1ncc(C(N)=O)c(Nc2cccc(C(F)(F)F)c2)n1", "remaining activity [%]": 93.4}
{"note": "Excerpt of the above (block 2):"}
{"test system": "human patients", "conditions": "150 mg once daily, 0 h, cycle 1", "plasma concentration, geometric mean [ng/mL]": 3030}
{"test system": "cancer patients", "conditions": "100 mg, 1 h post-dose, single dose", "plasma concentration, geometric mean [ng/mL]": 135}
{"test": "LC-MS/MS", "test system": "human", "conditions": "50 mg once daily, 0 h, cycle 1", "plasma concentration, geometric mean [ng/mL]": 1070}
{"test": "LC-MS/MS", "test system": "human", "conditions": "200 mg twice daily, 4 h, single dose", "plasma concentration, geometric mean [ng/mL]": 1400}
